# Experimental data gathered from unrelated publications.
# Protocols differ between the studies behind these lines.
# Cell line: SH-SY5Y
SMILES,read-out,method,time,IC50 [µM]
CCCCCC(=O)Oc1c(C)c(OC)c2c(c1C)OC(=O)[C@@H](CCCC)[C@]2(O)/C=C/c1ccccc1 (relative stereo),cell growth or viability,SRB,72 h,> 50
CCOC(=O)c1cc(C)[nH]n1,cell growth or viability,MTT,24 h,25.9
CC(=O)O[C@H]1OC[C@@H]2C=C([C@]3(C)CCCC(C)(C)C3)CC[C@H]12,cytotoxicity,MTT,24 h,7.9
COc1c(C)c(OS(=O)(=O)c2ccccc2)c(C)c(OS(=O)(=O)c2ccccc2)c1C(=O)/C=C/c1ccccc1,cell growth or viability,SRB,72 h,> 50
Cc1c(COc2cc(OCc3cccc(C#N)c3)c(CN3CCCC[C@@H]3C(=O)O)cc2Cl)cccc1-c1cccc(OCCCCCC(=O)NO)c1,cell growth or viability,CCK-8,48 h,> 20
CCCCCCCCCCCC(=O)Oc1c(C)c(OC)c2c(/C=C/c3ccccc3)c(CCCCCCCCCC)c(=O)oc2c1C,cell growth or viability,SRB,72 h,> 50
CCOC(=O)c1cc(C)n(Cn2cnc3ccccc32)n1,cell growth,MTT,24 h,121
Cc1c(COc2cc(OCc3cccc(C#N)c3)c(CNC(CO)(CO)CO)cc2Cl)cccc1-c1cccc(OCCCCCC(=O)NO)c1,cell growth or viability,CCK-8,48 h,5.35
COc1c(C)c(OCc2ccccc2)c(C)c(OCc2ccccc2)c1C(=O)/C=C/c1ccccc1,cell growth or viability,SRB,72 h,> 50
Cc1c(COc2cc(OCc3cccc(C#N)c3)c(CNC(C)(CO)CO)cc2Cl)cccc1-c1cccc(OCCCCCCC(=O)NO)c1,cell growth or viability,CCK-8,48 h,> 20
CCOC(=O)c1cc(C)n(CO)n1,cell growth or viability,MTT,24 h,474
Cc1c(COc2cc(OCc3cccc(C#N)c3)c(CN3CCCC[C@@H]3C(=O)O)cc2Cl)cccc1-c1cccc(OCCCCCCC(=O)NO)c1,cell growth or viability,CCK-8,48 h,> 20
CCOc1cncc(-c2ccc(NC(=O)C3(c4ccnc(NS(=O)(=O)C5CC5)n4)CCOCC3)nc2)n1,cell growth or viability,ATP luminescence,72 h,0.036

# Some of these lines once more:
SMILES,read-out,method,time,IC50 [µM]
COc1c(C)c(OCc2ccccc2)c(C)c(OCc2ccccc2)c1C(=O)/C=C/c1ccccc1,cell growth or viability,SRB,72 h,> 50
